Assay results collected from several papers.
Each line is one published result; not all experiments were run side by side. “And” joins repeats or separate records; there may be more than shown. Numbers after ± are the reported error.
UniProt P04062, sequence (whole entry, unmodified, looked up): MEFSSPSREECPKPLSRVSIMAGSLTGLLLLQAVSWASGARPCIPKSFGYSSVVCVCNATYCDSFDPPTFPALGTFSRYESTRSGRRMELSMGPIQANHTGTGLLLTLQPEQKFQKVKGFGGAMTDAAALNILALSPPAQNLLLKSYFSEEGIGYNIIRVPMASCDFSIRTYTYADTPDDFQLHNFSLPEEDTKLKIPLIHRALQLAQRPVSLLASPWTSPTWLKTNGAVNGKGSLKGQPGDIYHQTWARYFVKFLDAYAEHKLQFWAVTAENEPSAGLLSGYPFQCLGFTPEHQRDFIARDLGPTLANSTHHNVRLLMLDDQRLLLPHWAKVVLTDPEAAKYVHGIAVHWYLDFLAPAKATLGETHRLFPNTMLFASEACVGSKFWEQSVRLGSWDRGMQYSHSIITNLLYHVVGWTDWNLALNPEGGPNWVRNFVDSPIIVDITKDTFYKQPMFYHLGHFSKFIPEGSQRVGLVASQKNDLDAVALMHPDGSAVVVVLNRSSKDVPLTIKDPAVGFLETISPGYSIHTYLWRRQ

C=C(NC(=O)c1csc(-c2ccc(NC(=O)CCCCCBr)cc2)n1)C(=O)NC(=C)C(=O)OC
EC50 (SCC-61; cell viability): 1.8 µM

CC(C)(C)c1cc(-c2ccc3cccnc3n2)nc(-c2ccc3cccnc3n2)c1.COc1ccncc1.[Cl-].[Cl-].[Ru+2].c1ccc2cc3nc4c5cccnc5c5ncccc5c4nc3cc2c1
EC50 (SK-MEL-28; cell viability; dark, hypoxia 1 % oxygen): 90.9 ± 2 µM

COc1ccc(N(c2ccccc2)S(=O)(=O)C2CC3OC2C(c2ccc(O)cc2)=C3c2ccc(O)cc2)cc1 (stereo not shown)
EC50 (MCF7 3xERE-luc, steroid-deprived; ERE luciferase reporter, agonist): 0.0631 µM

CCN(CC)c1ccc2c(c1)O[B-]1(c3ccccc3C#N)OC(=O)C(c3ccccc3)=N[N+]1=C2CC(C)C (stereo not shown)
EC50 (HMC3; cell viability, CCK-8; 24 h): 379 ± 160 µM

CN(C)Cc1nc(Nc2ccc(-c3cnc4cc(F)ccn34)c3c2C(=O)NC3)ccc1C1CCOC1 (stereo not shown)
EC50 (human CD8 T cells; cytokine induction, measured: IFNγ; with: anti-CD3/CD28): 0.011 µM

Cc1ccncc1.[Cl-].[Cl-].[Ru+2].c1cc(-c2ccc3cccnc3n2)nc(-c2ccc3cccnc3n2)c1.c1ccc2cc3nc4c5cccnc5c5ncccc5c4nc3cc2c1
EC50 (SK-MEL-28; photocytotoxicity; visible light 400-700 nm, 100 J/cm2, oxygen 1%): 78.2 ± 0.9 µM

CC[C@H]1CN([C@@H](CC)c2ccc(C(F)(F)F)cc2)[C@H](CC)CN1c1nc(=O)n(C)c2ccc(C#N)nc12
EC50 (human CD4+ T cells; protein phosphorylation, phosphoproteomics, measured: POLE4 Ser9 phosphorylation; 1 h, stimulation 60 min): 0.0106 µM

OC[C@@H]1[C@@H](O)[C@H](O)[C@@H](O)CN1CCCCCOCc1cccc(-c2ccccc2)c1
IC50 (Lysosomal acid glucosylceramidase (GBA1, Homo sapiens, UniProt P04062, R534H); inhibitor, 4MU-β-D-glucopyranoside; with: 4MU-β-D-glucopyranoside): 0.3 µM

Clc1ccc(Cn2cc(-c3ccccc3)[n+]3c2CCC3)cc1Cl.[Cl-]
translation activity (Trypanosoma cruzi; reporter mRNA translation, inhibitor, measured: Renilla luciferase mRNA; cell-free extract; concentration not given, test 2; reference: positive over negative control): 100% and 128%

COC(=O)[C@H](C)NC(=O)[C@H](C)NC(=O)c1csc(-c2cccnc2)n1
EC50 (SCC-61; cell viability): > 30 µM

Cc1c(C#N)sc2c1S(=O)(=O)c1c-2sc(-c2sc3c(sc4c(C)c(COCc5cn(CC(=O)NCCOCCOCCCCCCCl)nn5)sc43)c2C)c1C
EC50 (HeLa stably expressing mitochondrial HaloTag-GFP; cell penetration, covalent, HaloTag chloroalkane penetration): 0.24 ± 0.03 µM

COc1ccc(N(CCO)S(=O)(=O)C2CC3OC2C(c2ccc(O)cc2)=C3c2ccc(O)cc2)cc1 (stereo not shown)
EC50 (MCF7 3xERE-luc, steroid-deprived; ERE luciferase reporter, agonist): 0.00126 µM

CCCn1ncc(CN2CCCC(C(=O)c3cccc(OC(C)C)c3)C2)c1C (stereo not shown)
relative translation (Trypanosoma cruzi; reporter mRNA translation, inhibitor, measured: capped polyadenylated Renilla luciferase mRNA; cell-free extract; concentration not given; reference: control RNA): 96%

Excerpt of the above:
CN(C)Cc1nc(Nc2ccc(-c3cnc4cc(F)ccn34)c3c2C(=O)NC3)ccc1C1CCOC1 (stereo not shown)
EC50 (human CD8 T cells; cytokine induction, measured: IFNγ; with: anti-CD3/CD28): 0.011 µM
